Measurements gathered from unrelated publications.
Lines come from different studies, so protocols differ. ± marks the error that the study gave.

COc1ccc(NC(=O)N2CCCCN3[C@H](CO)[C@H](c4ccc(C#Cc5ccccc5)cc4)[C@@H]3C2)cc1  EC50 (Plasmodium cynomolgi; liver-stage small forms (hypnozoites); primary rhesus hepatocytes, M strain): 3.34 µM
Cc1ncnc2c1c(C1=CCCC1)cn2[C@@H]1O[C@H](CO)[C@@H](O)[C@H]1O  EC50 (Leishmania infantum; parasite growth, imaging; mouse Macrophage; 5 days, intracellular, amastigote): > 64 µM
CCN(CC)CCCC(C)Nc1ccnc2cc(Cl)ccc12 (stereo not drawn)  EC50 (HIV-2; cytopathic effect; MT4, ROD; 5 days): 3.8 ± 1.6 µM
C[C@H]1CN(c2n[nH]c3nc(N[C@H]4CC[C@H](NS(=O)(=O)CCC(F)(F)F)CC4)ncc23)CCO1  EC50 (Leishmania donovani; human PBMC, LV9): 0.05 µM
O=[N+]([O-])c1cn2c(n1)O[C@@H](COc1ccc(-c3ccc(F)cc3)nc1)CC2  EC50 (Leishmania amazonensis; parasite growth; mouse Peritoneal macrophage; 72 h, intracellular, amastigote): < 1.11 µM
Nc1ncnc2c1ncn2CCOCP(=O)(O)O  EC50 (HIV-2; giant cell formation; CEM, ROD; 96 h): 7 ± 1.1 µM
CC(=O)OC[C@H]1O[C@@H]([S-])[C@H](OC(C)=O)[C@@H](OC(C)=O)[C@@H]1OC(C)=O.CCP(CC)CC.[Au+]  EC50 (Leishmania amazonensis; alamarBlue; axenic amastigotes; 72 h): 0.13 ± 0.0025 µM
Cc1ncnc2c1c(/C=C/c1ccccc1)cn2[C@@H]1O[C@H](CO)[C@@H](O)[C@H]1O  EC50 (Leishmania infantum; parasite growth, imaging; mouse Macrophage; 5 days, intracellular, amastigote): 3.27 µM
CC1(C)C=C2[C@H]3CC[C@@H]4[C@@]5(C)CC[C@H](OC(=O)C6CCCC6)C(C)(C)[C@@H]5CC[C@@]4(C)[C@]3(C)CC[C@@]2(C(=O)O)CC1  EC50 (HIV-1 IIIB; viral replication, measured: p24 antigen; MT-2; day 4): > 10 µM
Cc1ncnc2c1c(-c1ccccc1)cn2[C@@H]1O[C@H](CO)[C@@H](O)[C@H]1O  EC50 (Leishmania infantum; parasite growth, imaging; mouse Macrophage; 5 days, intracellular, amastigote): > 64 µM
CCc1nn(C)c2nc(-c3ccc(C(=O)O)cc3)nc(NCc3ccc(F)cc3)c12  EC50 (Cryptosporidium parvum; parasite growth, immunofluorescence microscopy; HCT-8, Iowa; 48 h post infection, compound added at 3 h): 1.8 µM
N=C(N)N  EC50 (Enterovirus D68; cytopathic effect, inhibitor, neutral red uptake; RD cells, Fermon; 33 °C, 25 mM MgCl2): 91 ± 11 µM
COc1ccc(NC(=O)N2CCCCN3[C@H](CN(C)C)[C@H](c4ccc(C#Cc5ccccc5)cc4)[C@@H]3C2)cc1  EC50 (Plasmodium cynomolgi; liver-stage small forms (hypnozoites); primary rhesus hepatocytes, M strain): 0.933 µM
CCCCC(=O)O[C@H]1CC[C@]2(C)[C@H]3CC[C@@H]4C5=CC(C)(C)CC[C@]5(C(=O)O)CC[C@@]4(C)[C@]3(C)CC[C@H]2C1(C)C  EC50 (HIV-1 IIIB; viral replication, measured: p24 antigen; MT-2; day 4): > 10 µM
CCCn1/c(=N/C(=O)c2cccc(C(N)=O)c2)[nH]c2ccccc21  EC50 (Plasmodium berghei; liver stage parasite load, inhibitor, luciferase; HepG2; compound added 0 h post infection): 11 µM
CCc1cn([C@@H]2O[C@H](CO)[C@@H](O)[C@H]2O)c2nc[nH]c(=O)c12  EC50 (Leishmania infantum; parasite growth, imaging; mouse Macrophage; 5 days, intracellular, amastigote): > 64 µM
CCCC(=O)O[C@H]1CC[C@]2(C)[C@H]3CC[C@@H]4C5=CC(C)(C)CC[C@]5(C(=O)O)CC[C@@]4(C)[C@]3(C)CC[C@H]2C1(C)C  EC50 (HIV-1 IIIB; viral replication, measured: p24 antigen; MT-2; day 4): > 10 µM
Cc1ncnc2c1c(C1CCCCC1)cn2[C@@H]1O[C@H](CO)[C@@H](O)[C@H]1O  EC50 (Leishmania infantum; parasite growth, imaging; mouse Macrophage; 5 days, intracellular, amastigote): > 64 µM
O=C(NCCN1CCCC1)c1cc(-c2cccs2)nc2ccccc12  EC50 (Enterovirus D68; cytopathic effect; RD, US/KY/14-18953; bound over five strains): < 1 µM
COc1cc(NC(C)CCCN)c2ncccc2c1 (stereo not drawn)  EC50 (HIV-2; cytopathic effect; MT4, ROD; 5 days): > 100 µM
CCCC#Cc1cn([C@@H]2O[C@H](CO)[C@@H](O)[C@H]2O)c2ncnc(C)c12  EC50 (Leishmania infantum; parasite growth, imaging; mouse Macrophage; 5 days, intracellular, amastigote): > 64 µM

A few entries again:
CCc1nn(C)c2nc(-c3ccc(C(=O)O)cc3)nc(NCc3ccc(F)cc3)c12  EC50 (Cryptosporidium parvum; parasite growth, immunofluorescence microscopy; HCT-8, Iowa; 48 h post infection, compound added at 3 h): 1.8 µM
N=C(N)N  EC50 (Enterovirus D68; cytopathic effect, inhibitor, neutral red uptake; RD cells, Fermon; 33 °C, 25 mM MgCl2): 91 ± 11 µM
